Assay results collected from several papers.
Numbered parts are unrelated; each lists some results of a single study.

Series 1
Target: Centromere-binding protein 1, full length, N-terminal tag (CBF1, Saccharomyces cerevisiae, UniProt P17106, residues 1-351)
Chain of UniProt P17106 (whole entry, looked up): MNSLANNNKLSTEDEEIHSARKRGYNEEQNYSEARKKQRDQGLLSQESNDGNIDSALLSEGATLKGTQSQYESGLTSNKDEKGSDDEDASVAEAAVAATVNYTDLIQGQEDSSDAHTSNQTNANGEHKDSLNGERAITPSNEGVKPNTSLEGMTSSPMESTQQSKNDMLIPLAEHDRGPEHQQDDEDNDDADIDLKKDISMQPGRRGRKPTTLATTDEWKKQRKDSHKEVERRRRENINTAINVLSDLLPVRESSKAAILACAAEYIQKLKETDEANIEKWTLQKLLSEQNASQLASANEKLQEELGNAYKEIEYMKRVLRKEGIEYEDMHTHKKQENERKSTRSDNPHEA
Method: protein-binding microarray
Form: double-stranded DNA, one strand shown
Matrix: in vitro
Tested at: 0.8 µM
Setting: whole 60-bp probe, no competitor
Direction: higher = stronger binding
Quantity: fluorescence intensity
Shared flanks, not repeated: … GTCTTGATTCGCTTGACGCTGCTG
Oligonucleotide = GAAAGTTGTTCCGCTCACGCGAACAGGTTTTTCTAG; value = 518 a.u.
Oligonucleotide = CTAGTTAGTGTAAGCGGTCAGGTGTAAGTAGTATTC; value = 1250 a.u.
Oligonucleotide = TGTACGAAGCTATCTCAGGTGACTATAGTAGTTAGG; value = 1010 a.u.
Oligonucleotide = CCTAACTACTATATTCACGTGTTATAGCTTCGTACA; value = 3440 a.u.
Oligonucleotide = CTAATCAAGCCTATACACGTTTATTGCACACTCTTC; value = 559 a.u.
Oligonucleotide = CCTAACTACTATATCTTCGTGCAATAGCTTCGTACA; value = 519 a.u.
Oligonucleotide = CTACAAATAGTCAGTAACGCCACGTTTTAGGATTTC; value = 596 a.u.
Oligonucleotide = CTAATAATTCAGCGTGATATGATGAAATTTTGTTTC; value = 643 a.u.
Oligonucleotide = CTAGGGGTGGTTCAGGTGGTTATTTGGTAATAATTC; value = 531 a.u.
Oligonucleotide = GAAAGTCTCCATCCCTTCGTCACCTTCGGCTGTTAG; value = 530 a.u.
Oligonucleotide = CTATCATCATGCACTCATGTGCCCGCGCGCGCGTTC; value = 726 a.u.
Oligonucleotide = CTAGAAAGCGGGACGGACGTGCTTGTTTTACCTTTC; value = 504 a.u.
Oligonucleotide = CTATAGGAAAAGCCCGACGTCATTATAGCTATGTTC; value = 504 a.u.
Oligonucleotide = CTATAGCGCTTTGATCACGTGCTCGGGCGCTATTTC; value = 33200 a.u.
Oligonucleotide = GAACTTTTTATGGCTCATCAGACTGACACCCTGTAG; value = 553 a.u.
Oligonucleotide = CCTAACTACTATAATCACGTGCCATAGCTTCGTACA; value = 16100 a.u.
Oligonucleotide = GAATAGAACCACAGTCACGTGATATGCTTATCATAG; value = 37500 a.u.
Oligonucleotide = GAATATTCTTAAATACGCATGACCATCCGCGAATAG; value = 790 a.u.
Oligonucleotide = CTATTCTTTACGAGCCACGGGGCTGCTATTTCATTC; value = 751 a.u.
Oligonucleotide = CTAACGCTTTTACTTCACCCCATCTTATACTATTTC; value = 559 a.u.
Oligonucleotide = CTAATAGTTACTGATCAGGTGATGAGACGATAATTC; value = 4350 a.u.
Oligonucleotide = CTAGATTGCTTTTTTCACATGACCATATTATATTTC; value = 2380 a.u.
Oligonucleotide = TGTACGAAGCTATGTCATGTAAGTATAGTAGTTAGG; value = 539 a.u.
Oligonucleotide = CCTAACTACTATAGGCGCGTGAGATAGCTTCGTACA; value = 636 a.u.
Oligonucleotide = GAAAATGTTGTTCGTGGTGAAATAGAAACTTTTTAG; value = 545 a.u.

Series 2
Target: Histone acetyltransferase KAT6A, winged helix 1, GST fusion (KAT6A, Homo sapiens, UniProt Q92794, residues 1-85)
Method: protein binding microarray
Form: double-stranded DNA, one strand shown
Matrix: in vitro
Tested at: not given
Setting: 8-mer, flanks averaged, mean of 2 arrays, mostly near background
Reference: not given
Direction: higher = stronger binding
Quantity: E-score
Residues (chain): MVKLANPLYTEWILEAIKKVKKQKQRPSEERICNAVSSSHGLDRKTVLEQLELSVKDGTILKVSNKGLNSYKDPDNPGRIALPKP
Oligonucleotide = ACGTCATA; value = -0.0402
Oligonucleotide = AACCCATC; value = -0.123
Oligonucleotide = GACTGCTA; value = -0.181
Oligonucleotide = AAACTTCC; value = -0.0587
Oligonucleotide = AATATTCC; value = -0.0215
Oligonucleotide = ACGATAGA; value = -0.153
Oligonucleotide = ATCCCGAC; value = 0.215
Oligonucleotide = AAGAACCT; value = -0.172
Oligonucleotide = ATCGTACG; value = 0.137
Oligonucleotide = AACCGTAT; value = 0.119
Oligonucleotide = ATACGCAC; value = 0.134
Oligonucleotide = CGTTATAC; value = -0.0421
Oligonucleotide = GTTTTTCA; value = -0.158
Oligonucleotide = AGACTGGA; value = -0.194
Oligonucleotide = ACTTTGGG; value = -0.207
Oligonucleotide = CTACAACC; value = 0.00238
Oligonucleotide = AGGGCAAT; value = -0.0262
Oligonucleotide = CCCTGACA; value = -0.0992
Oligonucleotide = ATCACTAC; value = -0.22
Oligonucleotide = CCCTGAAA; value = -0.128
Oligonucleotide = CCACCGCA; value = 0.211
Oligonucleotide = AGGCGGCC; value = 0.352
Oligonucleotide = TCTTGGAA; value = -0.186
Oligonucleotide = GCCCGCCA; value = 0.208
Oligonucleotide = AAAAGACT; value = -0.0714

Series 3
Target: RNA binding protein fox-1 homolog 2, RRM domain, GST-SBP tag (RBFOX2, Homo sapiens, UniProt O43251-10, residues 100-194)
Method: RNA Bind-n-Seq
Form: RNA
Matrix: in vitro
Tested at: 365 nM
Setting: natural RNA segment, single round, ends assumed
Reference: no-protein control
Direction: higher = stronger binding
Quantity: RBNS enrichment (R)
Shared flanks, not repeated: GGGAGUUCUACAGUCCGACGAUC … UGGAAUUCUCGGGUGCCAA
Target sequence (chain): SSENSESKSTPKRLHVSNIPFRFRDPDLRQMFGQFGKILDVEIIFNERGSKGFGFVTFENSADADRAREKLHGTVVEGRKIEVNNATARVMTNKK
Oligonucleotide = GCAGCGUCUGCCAUGAAACCAGUUCACCGCUCCUCUCCAUGAAUUGACCUUUUCAAUUUUUUUAAAGUUAUUUUUGAGACAGAGCCUCAUGUAGCCCAGGCUGGCCUUGA; value = 0.423
Oligonucleotide = GCAUUACCUGCCAGCGAGUCAAGGUAGGGGAUCCAGCAAACGGUUUUGGGAAUUCAGACUGUGGAAACAUCGGACUUCCCUUUGCCCUUCCUCAACUUAGUGGCAAAGCC; value = 0.546
Oligonucleotide = UGAUGACUUGCACUUUUAAAGUGGUUUUAUAACACUAACCCGUCCUUGCUAAAGAUUGAAGUAGGUUCUCUUAAAAGGUCUAUUGAUGGACAUGUCUGAGCAGAGAAACC; value = 0.523
Oligonucleotide = CAUGGAAACCCAAAGGCCGUGUGUGUUUAGAAGCCUAACUGUCACAUCAAGCAUCAUCGUCCCCAUGCAACAACAACCAUCACCUUAUACAUCACUUCCUGUUUUAUGCA; value = 0.895
Oligonucleotide = UCAUCAUUUACAUUGAAGAAGCUCACGCCACAGAUGGCUGGGCUUUUAAGAACAACGUGGACAUCCGGCAGCACCGGAGCCUCCAGGAGCGCGUGCGGGCAGCCCGCAUG; value = 1.12
Oligonucleotide = CAAUUCCUCUUUUUAAGAGAGGUACUACAUUUGAUUUCUCAAUUUCUCAGUUUGUUUUCAAUACAAACAGCAACCACUGAAAUGCAGAAAAUGGUAAUCAAGUGUGAUGU; value = 0.544
Oligonucleotide = CUUUUUUAUCUUGUAUGUCCCCCUCUUAGUCUGCUGAGCUUUUGUUUUGCUUGGUUUUCAGUGAUAGACAUGGGAUAGCCAAAAGAAGGGACUACCUGAAACCCCUAACU; value = 0.228
Oligonucleotide = UUUGAGCCUGGCUAAUGAGAAAAAGAACAAAGUAGGACCAUGACCCAGUGUUCUCCUGUAAAUCUCACUGUAAAAAUCUCAAUGCAAAAACACUGAGACAGGAGUGAGAC; value = 0.219
Oligonucleotide = UGGGUGGCGGUGGUGGGGCCGGGUGGGCCCCCGCCCAGCGCCUGCUGGAAUGAGAAGCACAGACUCCGCCACGGACUCCUUUUCUCUCCCUCCUCCCGCCCCGCCAGGCC; value = 0.893
Oligonucleotide = UAUUAUUAUUAUAAUUAUUUUUUUGCGUGAAAGUGUUACAUAUUCUUUCACUUGUAUGUACAGAGAGGUUUUUCUGAAUAUUUAUUUUAAGGGUUAAAUCACUUUUGCUU; value = 1.24
Oligonucleotide = UGCUUAAAAAUAUUUUCCUCACAAAAUUACUAUCAGGUCUGCCAUAAAUUCUUCCUAAGUUCUCUGCUCAUUAAUCUUCAGACCACAGUUACUAAAACUGUGGCUUAGUA; value = 0.497
Oligonucleotide = UCGUCUUUUAUUUUCUUGUGGCAUUAUUAGGCAGGUAAGCUUGAUGUAGACCAUUGACUGACCCCAGUCAAAGAUAGGUCCUAGUGAUAUAAGAACACUAGCCCAAAAGG; value = 0.364

Series 4
Target: Ras GTPase-activating protein-binding protein 1, RRM domain (G3BP1, Homo sapiens, UniProt Q13283)
Chain of UniProt Q13283 (whole entry, looked up): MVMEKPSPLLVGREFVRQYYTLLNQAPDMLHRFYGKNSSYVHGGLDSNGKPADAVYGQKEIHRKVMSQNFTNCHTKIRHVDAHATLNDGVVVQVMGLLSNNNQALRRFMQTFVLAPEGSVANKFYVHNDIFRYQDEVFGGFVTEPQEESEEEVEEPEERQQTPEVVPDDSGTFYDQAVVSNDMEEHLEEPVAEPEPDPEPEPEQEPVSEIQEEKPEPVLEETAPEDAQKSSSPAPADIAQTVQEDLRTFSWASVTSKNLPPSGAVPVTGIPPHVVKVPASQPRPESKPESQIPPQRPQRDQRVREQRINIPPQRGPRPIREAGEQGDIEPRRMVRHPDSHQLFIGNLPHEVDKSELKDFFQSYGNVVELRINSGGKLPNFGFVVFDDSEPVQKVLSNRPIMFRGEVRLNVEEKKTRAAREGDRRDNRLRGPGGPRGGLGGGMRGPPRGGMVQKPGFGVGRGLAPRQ
Method: RNA Bind-n-Seq
Form: RNA
Matrix: in vitro
Tested at: 1 µM
Setting: whole 134-nt RNA, ends assumed
With: 150 mM KCl
Reference: input library
Direction: higher = stronger binding
Quantity: log2 enrichment
Shared flanks, not repeated: GGGAGUUCUACAGUCCGACGAUC … UGGAAUUCUCGGGUGUCAAGG
Oligonucleotide = CAAGUCCUGUGCUACACAUCGUAUGUACCGAAUCGGGCCCGGGGCCCGGCCCGGGAAAGUAUUAUGUUACGCCGUUCGGAUCUGCACUUC; value = -0.644
Oligonucleotide = AAGUCCUGUGCUACACAUCGUAUGUACCGAAUCGGGGUUUGGGGAAAGGGGAGGGGAAAGUAUUAUGUUACGCCGUUCGGAUCUGCACUU; value = 1.31
Oligonucleotide = ACCAUGCAGGUGGGCAUCUUUGCGAAGUGGGGCAAGGGGGGGAUAGGGAGGGGGGUAACACUUUGGGAACAGGUGGUCCCAGGUCGUUUC; value = -0.425
Oligonucleotide = UCCUGUGCUACACAUCGUAUGUACCGAAUCAAAUUUUUUUAAACCCAAACCCCCCCAAAAAAGUAUUAUGUUACGCCGUUCGGAUCUGCA; value = -1.17
Oligonucleotide = UCAAGUCCUGUGCUACACAUCGUAUGUACCGAAUCGGGGUUGGGGUUGGGGUUGGAAAGUAUUAUGUUACGCCGUUCGGAUCUGCACUUC; value = -0.115
Oligonucleotide = UCCUGUGCUACACAUCGUAUGUACCGAAUCGGGCCCCCGGGCCCCCGGGGCCCCCGGGGAAAGUAUUAUGUUACGCCGUUCGGAUCUGCA; value = -0.555
Oligonucleotide = UGUGCUACACAUCGUAUGUACCGAAUCGGGGUUUUUUUGGGGUUUUUUUGGGGAAAAAGGGGAAAGUAUUAUGUUACGCCGUUCGGAUCU; value = 0.707
Oligonucleotide = AGUCCUGUGCUACACAUCGUAUGUACCGAAUCGGAAAAAGGAAAAAGGGAAAAAGGGGAAAGUAUUAUGUUACGCCGUUCGGAUCUGCAC; value = -0.135
Oligonucleotide = UGUUGUCUGGGUUUGGGGGUCGAGUAGAUGCGGGGCAGCCGGAGCUGUUGACGGAAAGGAGUAGCCCCAAAGGAGGGCAUGUGAAGUCGC; value = -0.201
Oligonucleotide = UCUAACUAAUUUUUCUUUGUUUUUUAACAGGAGAGGAGAUACUUACCCUUAAGUCAAGCCAGAAAAAGUGGUUUCCAAAUGGAUUGGCUG; value = -0.504
Oligonucleotide = UGUGCUACACAUCGUAUGUACCGAAUCGGGGUUUUUUUGGGGUUUUUUUGGGGUUUUUUUGGAAAGUAUUAUGUUACGCCGUUCGGAUCU; value = -0.111
Oligonucleotide = CAAGUCCUGUGCUACACAUCGUAUGUACCGAAUCGGGGCCCGGGCCCGGGCCCGGAAAGUAUUAUGUUACGCCGUUCGGAUCUGCACUUC; value = -2.4
Oligonucleotide = CUGUGCUACACAUCGUAUGUACCGAAUCGGGGAAAAAAGGGGAAAAAAGGGGAAAAAAGGGGAAAGUAUUAUGUUACGCCGUUCGGAUCU; value = 0.65
Oligonucleotide = CUGUGCUACACAUCGUAUGUACCGAAUCGGGUUUUUUUGGGUUUUUUUGGUUUUUUUGGGGAAAGUAUUAUGUUACGCCGUUCGGAUCUG; value = -0.211

Repeated from above (series 1):
Oligonucleotide = GAAAATGTTGTTCGTGGTGAAATAGAAACTTTTTAG; value = 545 a.u.
Oligonucleotide = TGTACGAAGCTATGTCATGTAAGTATAGTAGTTAGG; value = 539 a.u.
Oligonucleotide = CTAGGGGTGGTTCAGGTGGTTATTTGGTAATAATTC; value = 531 a.u.
Oligonucleotide = CTAGATTGCTTTTTTCACATGACCATATTATATTTC; value = 2380 a.u.
Oligonucleotide = GAACTTTTTATGGCTCATCAGACTGACACCCTGTAG; value = 553 a.u.
Oligonucleotide = CCTAACTACTATATCTTCGTGCAATAGCTTCGTACA; value = 519 a.u.
Oligonucleotide = GAAAGTTGTTCCGCTCACGCGAACAGGTTTTTCTAG; value = 518 a.u.
Oligonucleotide = GAATAGAACCACAGTCACGTGATATGCTTATCATAG; value = 37500 a.u.
Oligonucleotide = CTATAGGAAAAGCCCGACGTCATTATAGCTATGTTC; value = 504 a.u.
Oligonucleotide = TGTACGAAGCTATCTCAGGTGACTATAGTAGTTAGG; value = 1010 a.u.
Oligonucleotide = CCTAACTACTATATTCACGTGTTATAGCTTCGTACA; value = 3440 a.u.
Oligonucleotide = CCTAACTACTATAATCACGTGCCATAGCTTCGTACA; value = 16100 a.u.
Oligonucleotide = CTATTCTTTACGAGCCACGGGGCTGCTATTTCATTC; value = 751 a.u.
